Measured values gathered from unrelated publications.
A part holds a random share of what one study measured.
UniProt P22612, sequence (whole entry, looked up): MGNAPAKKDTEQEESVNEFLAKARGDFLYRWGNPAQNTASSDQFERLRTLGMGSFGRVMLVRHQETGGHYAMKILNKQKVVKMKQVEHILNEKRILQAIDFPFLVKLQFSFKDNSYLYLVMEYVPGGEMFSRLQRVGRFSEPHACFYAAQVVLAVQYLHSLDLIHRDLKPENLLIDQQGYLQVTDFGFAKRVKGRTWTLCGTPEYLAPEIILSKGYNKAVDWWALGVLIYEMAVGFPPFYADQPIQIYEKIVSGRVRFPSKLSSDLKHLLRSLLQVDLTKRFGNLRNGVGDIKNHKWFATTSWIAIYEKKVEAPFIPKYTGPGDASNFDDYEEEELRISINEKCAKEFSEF
UniProt P11802, sequence (whole entry, looked up): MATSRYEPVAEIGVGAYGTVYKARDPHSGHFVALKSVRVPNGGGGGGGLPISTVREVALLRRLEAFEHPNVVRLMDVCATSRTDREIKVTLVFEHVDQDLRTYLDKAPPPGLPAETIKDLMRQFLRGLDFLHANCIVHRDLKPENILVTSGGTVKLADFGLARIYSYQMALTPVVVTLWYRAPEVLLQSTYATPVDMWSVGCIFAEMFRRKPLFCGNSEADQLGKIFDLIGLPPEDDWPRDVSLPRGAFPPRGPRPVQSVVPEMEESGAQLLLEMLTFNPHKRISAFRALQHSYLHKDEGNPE
UniProt Q9UK32, sequence (whole entry, looked up): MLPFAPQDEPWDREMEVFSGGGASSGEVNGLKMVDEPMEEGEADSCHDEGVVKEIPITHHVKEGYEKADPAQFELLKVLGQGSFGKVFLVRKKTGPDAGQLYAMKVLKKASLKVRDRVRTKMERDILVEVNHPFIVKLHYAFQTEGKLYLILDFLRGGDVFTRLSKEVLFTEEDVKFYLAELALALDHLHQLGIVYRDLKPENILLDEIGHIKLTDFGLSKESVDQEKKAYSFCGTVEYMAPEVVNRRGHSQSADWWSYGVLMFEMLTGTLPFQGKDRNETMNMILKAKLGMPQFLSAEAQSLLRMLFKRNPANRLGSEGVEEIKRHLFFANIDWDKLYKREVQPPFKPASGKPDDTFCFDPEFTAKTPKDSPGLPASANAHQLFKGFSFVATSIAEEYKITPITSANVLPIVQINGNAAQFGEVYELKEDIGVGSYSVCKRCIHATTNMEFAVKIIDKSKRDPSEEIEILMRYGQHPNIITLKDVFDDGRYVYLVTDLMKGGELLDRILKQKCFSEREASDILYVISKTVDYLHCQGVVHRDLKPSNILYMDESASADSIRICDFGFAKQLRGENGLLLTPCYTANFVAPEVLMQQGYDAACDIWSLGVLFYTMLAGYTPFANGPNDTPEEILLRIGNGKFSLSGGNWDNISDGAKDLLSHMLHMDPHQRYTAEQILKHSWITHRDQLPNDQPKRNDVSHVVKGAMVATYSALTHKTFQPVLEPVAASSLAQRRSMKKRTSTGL
UniProt O15530, sequence (whole entry, looked up): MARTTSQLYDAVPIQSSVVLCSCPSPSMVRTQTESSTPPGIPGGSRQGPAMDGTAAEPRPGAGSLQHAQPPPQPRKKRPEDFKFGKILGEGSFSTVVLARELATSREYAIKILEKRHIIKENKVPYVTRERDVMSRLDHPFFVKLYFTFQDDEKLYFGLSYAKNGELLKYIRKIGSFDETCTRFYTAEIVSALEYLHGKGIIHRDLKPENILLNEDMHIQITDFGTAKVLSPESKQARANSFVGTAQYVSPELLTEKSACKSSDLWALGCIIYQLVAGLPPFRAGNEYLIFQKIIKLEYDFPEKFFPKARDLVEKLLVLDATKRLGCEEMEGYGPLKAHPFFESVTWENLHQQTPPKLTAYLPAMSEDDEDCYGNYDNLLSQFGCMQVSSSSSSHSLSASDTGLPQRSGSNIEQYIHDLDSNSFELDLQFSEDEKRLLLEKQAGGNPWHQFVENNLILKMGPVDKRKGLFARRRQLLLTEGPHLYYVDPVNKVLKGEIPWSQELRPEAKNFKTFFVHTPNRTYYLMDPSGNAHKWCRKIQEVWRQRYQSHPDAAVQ
UniProt O75582, sequence (whole entry, looked up): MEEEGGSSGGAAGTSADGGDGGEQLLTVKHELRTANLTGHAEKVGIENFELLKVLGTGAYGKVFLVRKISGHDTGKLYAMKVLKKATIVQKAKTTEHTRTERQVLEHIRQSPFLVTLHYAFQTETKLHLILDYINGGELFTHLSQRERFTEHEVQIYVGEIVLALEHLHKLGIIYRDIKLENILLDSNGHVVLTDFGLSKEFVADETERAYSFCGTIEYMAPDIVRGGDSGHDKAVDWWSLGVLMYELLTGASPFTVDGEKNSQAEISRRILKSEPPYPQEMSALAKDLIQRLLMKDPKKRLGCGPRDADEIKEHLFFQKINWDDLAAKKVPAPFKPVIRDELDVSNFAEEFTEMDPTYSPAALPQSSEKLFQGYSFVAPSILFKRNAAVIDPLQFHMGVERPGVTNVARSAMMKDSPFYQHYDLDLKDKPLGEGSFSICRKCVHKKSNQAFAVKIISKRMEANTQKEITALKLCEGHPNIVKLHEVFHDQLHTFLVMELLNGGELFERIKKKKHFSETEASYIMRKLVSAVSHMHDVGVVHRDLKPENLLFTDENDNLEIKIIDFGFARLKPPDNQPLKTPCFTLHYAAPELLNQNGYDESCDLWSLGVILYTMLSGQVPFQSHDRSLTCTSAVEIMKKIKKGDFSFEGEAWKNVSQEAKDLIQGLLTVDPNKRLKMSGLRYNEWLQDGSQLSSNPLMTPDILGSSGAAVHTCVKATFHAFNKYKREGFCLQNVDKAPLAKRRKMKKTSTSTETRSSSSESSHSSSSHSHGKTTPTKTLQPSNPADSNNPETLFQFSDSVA

Block 1
SMILES: O=C1Cc2c([nH]c3ccc(Br)cc23)-c2ccccc2N1
Read-out: enzyme activity
Mode: inhibitor
Tested at: 0.5 µM
Baseline: control
target	remaining activity [%]
TSSK2 (Homo sapiens, UniProt Q96PF2)	99.3
PRKACG (Homo sapiens, UniProt P22612)	105
RPS6KA5 (Homo sapiens, UniProt O75582)	99.6
RPS6KA6 (Homo sapiens, UniProt Q9UK32)	95.9
PDPK1 (Homo sapiens, UniProt O15530)	94.9
Cyclin-dependent kinase 4, with cyclin D3 (CDK4, Homo sapiens, UniProt P11802)	89

Block 2
Target: RING finger protein unkempt homolog, zinc fingers 1-6, GST-SBP tag (UNK, Homo sapiens, UniProt Q9C0B0, residues 30-357)
UniProt Q9C0B0, sequence (30-357, looked up): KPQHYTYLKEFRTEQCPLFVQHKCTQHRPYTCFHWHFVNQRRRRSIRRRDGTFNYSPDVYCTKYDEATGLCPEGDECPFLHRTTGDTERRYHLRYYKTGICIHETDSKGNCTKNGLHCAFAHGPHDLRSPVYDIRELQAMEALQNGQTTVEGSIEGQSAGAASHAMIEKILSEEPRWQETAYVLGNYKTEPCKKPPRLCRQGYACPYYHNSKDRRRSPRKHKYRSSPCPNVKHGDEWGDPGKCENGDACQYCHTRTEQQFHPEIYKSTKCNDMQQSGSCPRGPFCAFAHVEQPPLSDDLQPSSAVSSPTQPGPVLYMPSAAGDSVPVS
Method: RNA Bind-n-Seq
Form: RNA
Matrix: in vitro
Tested at: not given
Setting: RNA with constant flanks, human-mouse chimeric sites, ends assumed
Baseline: input RNA pool
Direction: higher = stronger binding
Constant ends, left off below: GGGAGUUCUACAGUCCGACGAUC … CAACAGAGGAUUGAGCAUCA
Oligonucleotide	bound/input enrichment
UCUUAACUUAUUCAUUUAACUUAUUUUUAGCACUUAGUAAAUAUUGUUAGUCUUAGAGAGUAGUUCACAUUUUUUGAGAAGCAUGCCCUCCCUGUCCAUUUGUCUUAUAACAUGACCCAG	117 ratio
AUCAAAUACUUUGGGGACAUCAUUAGUGUGGGACAGAGAUUGUUGCAAGGGGCCCGGAUCUUAGGGAUUCCAGUUAUCAUAACGGAACAAUACCCCAAAGGACUUGGCAGCACCGUUCAA	0.294 ratio
UCAUUUUGCUCGGGUUAUUCUUUCCUUUAGGAAAAGCCUAAAGAUUAGGUUGUAAGAAAAAUAGAAGCCAUGUUUCGAAGACCUGUGUUACAGGUAUUUCGUCAGUUUGUAAGACAUGAG	4.44 ratio
UGGCGCCUGCGCUCCCCACUCGUGUUUUUAAGUGUAUUUUUAUAAGAUACAUGUAUUUACAAUUGAGCUUUUGUUACAUAAUGCUGAAAUGCUACUGCAAUAUUAUGAAAAAUGUUAAAU	0.176 ratio
UCUUUAAAAAAAAAAUUACAGGAAAAUACAGUGCUUUCCCUCCCAUAGGUCCAGGUUCAAGCUCAAAGAGCAAAGGCUUUGCACGGAGCUCAAACAUCUGAUGAAGAAAGAUUUCUGAGA	0.71 ratio
GCUCCUCCCCGCUCUGCAGCCUGGGGACACUGGGCUGCAUUUUUUUUCCAGCUUUCUUUUAAUAGUGUCAGUGUAACUGUAUCCCGUGACAUUUCAUUUUUUUUAAAUAGUGUAUUUUUU	18.9 ratio
ACCAUUUCUGAAUACACGGCUUUGUGUGUAGUUCACUUACGGUAUUAAAUUAUUAUUCUGCUUAGCUUAUAAUAAGGAUUACAAUUGUUAAAGAGGUUACUGAAUGUUACUCUGAAACUU	0.509 ratio
GCGGCAGAAUCAUGGAGGACAUAAUGCAGCUCCCCAAAGCGCGCGUCAACGCCAGCAUGCUAGCUCAGUAUAUCGACAAGCCUGUCUGCUUCGUGGGGAAGCUGGAAAAGAUUCAUCCCA	0.103 ratio

Block 3
Target: Histamine H4 receptor (HRH4, Homo sapiens, UniProt Q9H3N8)
UniProt Q9H3N8, sequence (whole entry, looked up): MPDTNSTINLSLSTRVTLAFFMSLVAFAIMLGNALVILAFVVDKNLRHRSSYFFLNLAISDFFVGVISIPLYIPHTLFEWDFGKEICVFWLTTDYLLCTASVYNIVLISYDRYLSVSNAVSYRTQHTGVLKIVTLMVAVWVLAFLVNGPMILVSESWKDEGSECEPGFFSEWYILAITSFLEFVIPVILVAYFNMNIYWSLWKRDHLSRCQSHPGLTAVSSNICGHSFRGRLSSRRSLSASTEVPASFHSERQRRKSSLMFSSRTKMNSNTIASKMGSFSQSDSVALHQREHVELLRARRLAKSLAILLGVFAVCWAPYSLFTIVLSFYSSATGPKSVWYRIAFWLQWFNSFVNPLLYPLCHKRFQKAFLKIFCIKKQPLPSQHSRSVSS
Read-out: ligand displacement
Tested at: 10 µM
SMILES	inhibition [%]
CCC(=NO)C(C)=Cc1ccc(F)c(C)c1	10.8
Cc1noc([C@H]2C[C@@H](c3ccc(C(F)(F)F)cc3)CN(C(=O)N3CCS(=O)(=O)C3)C2)n1	-2.74
CCc1ccccc1C(=O)Nc1n[nH]c2c(C)c(F)c(C3C(C#N)=C(C)N(C)C(C)=C3C#N)cc12	-10.8
CC(=O)Nc1ncc(CN2CCC[C@H](Cc3cc(C)nc(C)c3)C2)s1	-44.6
CN(C)CC#Cc1ccc(OCCCc2sc(N3CCc4cccc(C(=O)Nc5nc6ccccc6s5)c4C3)nc2C(=O)O)c(F)c1	6.5
CNC(=O)Nc1ccc2c(c1)CC[C@]21OC(=O)N(CC(=O)N(Cc2ccc(F)cc2)[C@@H](C)C(F)(F)F)C1=O	10.1
CNC(=N)NCCC[C@H](NC(=O)[C@H](CC(C)C)NC(=O)NNC(=O)[C@H](Cc1ccccc1)NC(=O)[C@H](CO)NC(=O)[C@H](CC(N)=O)NC(=O)[C@@H](Cc1ccncc1)NC(=O)[C@H](N)Cc1ccc(O)cc1)C(=O)N[C@@H](Cc1ccccc1)C(N)=O	10.4
Cn1cc(Cl)c2c(Oc3c(F)cc(Nc4cc(Cl)nc(N)n4)cc3F)ccnc21	-9.04
Cc1ncc(-c2cc(Cl)ccc2F)cc1-n1c(=O)n(CC(N)=O)c2ccccc21	-20.1
Cc1cc(Nc2nccc(C)n2)cc(-c2cnc([C@@]3(O)CC[C@H](C(=O)O)C(C)(C)C3)s2)c1	7.61
Cc1c(NC(=O)c2cc(C(N)=O)nc3cc(F)ccc23)c(C(F)(F)F)nn1Cc1ccc(C#N)cc1	29
Cc1ccccc1Oc1cc(-n2c(=O)cc(C(F)(F)F)[nH]c2=O)c2ccccc2c1Cl	-6.41
Cn1nc(C(=O)NCc2ccc(C(=O)O)cc2)cc1-c1ccc2[nH]ccc2c1	-6.14

Block 4
Target: TAR DNA-binding protein 43, full length, His tag (TARDBP, Homo sapiens, UniProt Q13148, residues 1-414)
Method: RNA Bind-n-Seq
Form: RNA
Matrix: in vitro
Tested at: 20 nM
Setting: 6-mer, flanks averaged, single round
Together with: 150 mM LiCl
Baseline: input library
Direction: higher = stronger binding
Oligonucleotide	6-mer enrichment (R)
GGUUUC	0.971
UGGGUU	1.2
GCCGUC	0.906
CAGCGG	0.966
GUCUCG	0.915
UGUAGG	1.18
AAUCGU	0.896
UAAGCA	0.86

Excerpt of the above (block 1):
target	remaining activity [%]
RPS6KA5 (Homo sapiens, UniProt O75582)	99.6
RPS6KA6 (Homo sapiens, UniProt Q9UK32)	95.9
